{"data": "Results gathered from unrelated publications", "note": "A part holds a random share of what one study measured."}
{"data": "Block 1", "target": "Hepatocyte nuclear factor 3-beta, forkhead domain (FOXA2, Homo sapiens, UniProt Q9Y261, residues 142-269)", "method": "protein-binding microarray", "form": "double-stranded DNA, one strand shown", "sample": "in vitro", "tested at": "not given", "setting": "k-mer, scored over probes, only values ≥0.25", "reading": "higher = stronger binding", "Construct (chain)": "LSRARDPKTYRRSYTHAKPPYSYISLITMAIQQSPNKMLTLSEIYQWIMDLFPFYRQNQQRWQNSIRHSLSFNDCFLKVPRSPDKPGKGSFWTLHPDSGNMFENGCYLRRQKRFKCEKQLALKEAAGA"}
{"Sequence": "CGATACTA", "E-score": 0.287}
{"Sequence": "AATATCAG", "E-score": 0.3}
{"Sequence": "CCACTATA", "E-score": 0.26}
{"Sequence": "ATGTAACA", "E-score": 0.359}
{"Sequence": "CCAACTAA", "E-score": 0.268}
{"Sequence": "ATGTTGAC", "E-score": 0.347}
{"Sequence": "AGTCATAG", "E-score": 0.255}
{"Sequence": "AAATAAGT", "E-score": 0.265}
{"data": "Block 2", "target": "Sal-like protein 4, full length isoform B (SALL4, Homo sapiens, UniProt Q9UJQ4-2, residues 1-616)", "method": "universal PBM", "form": "double-stranded DNA, one strand shown", "sample": "in vitro", "tested at": "not given", "setting": "8-mer, flanks averaged, mean of replicates", "reading": "higher = stronger binding"}
{"Sequence": "TACCTTCA", "E-score": 0.13}
{"Sequence": "CACTGAGC", "E-score": -0.184}
{"Sequence": "AACCCGCC", "E-score": -0.193}
{"Sequence": "CCTAAGAG", "E-score": -0.134}
{"Sequence": "ATCTCCTG", "E-score": -0.0282}
{"Sequence": "CAAGATAG", "E-score": -0.0578}
{"data": "Block 3", "target": "RNA binding protein fox-1 homolog 2, RRM domain, GST-SBP tag (RBFOX2, Homo sapiens, UniProt O43251-10, residues 100-194)", "method": "RNA Bind-n-Seq", "form": "RNA", "sample": "in vitro", "tested at": "365 nM", "setting": "natural RNA segment, single round, ends assumed", "reference": "no-protein control", "reading": "higher = stronger binding", "shared flanks, not repeated": "GGGAGUUCUACAGUCCGACGAUC … UGGAAUUCUCGGGUGCCAA", "Target sequence (chain)": "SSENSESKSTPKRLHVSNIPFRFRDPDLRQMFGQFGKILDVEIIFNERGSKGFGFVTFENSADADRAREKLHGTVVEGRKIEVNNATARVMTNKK"}
{"Sequence": "ACACAGUGCAGAGCAGAGCCCAGGAGGGGCCACAGGCAUCAGUGAACUCUCCUUGCCUAGGAUGGCAACUGAUUUUGCUCUCUUUGGAAAGAUUCUAGAUAAGUCAGCAU", "RBNS enrichment (R)": 0.622}
{"Sequence": "GUAGGGGACCCCUGCGGUUCCAGCCUCUUAGCCUUGGUUUGUUGGUCACAUAGCACUGUUAAAUUUAUCCGAGGCAUAAGUAGUUCCUAGAGGAGACAGUCUAUCACUCC", "RBNS enrichment (R)": 0.286}
{"Sequence": "AGAGACUAUUUUAAUCCUUAGCGCAUGGGUCCCGCUUUUGGUGAUAUUUUCACAUUAGGUUGCUGUCUAAUUUUGGAGAGGGUCAGGAAUCGUUCUGGUGCCUUAAUGCA", "RBNS enrichment (R)": 9.46}
{"Sequence": "CCGUUAGUCAUUACUGCUGAGUCCUGGGUCACCAGCAGACACACUGGGCAUGGACCCCUCAAAGCAGGCACACCCAAAACACAAGUCUGUGGCUAGAACCUGAUGUGGUG", "RBNS enrichment (R)": 5.27}
{"Sequence": "UUUUGUUCUCUGGUAAUGUAAUAAGCAUGAUGGUGCCUUCUAUUAAUACAUCAUUCCAGUCUUGCUGGUAAUUUUGUACAGUAUAGUGUAUGAAUUGCUGUGCUGCAAAG", "RBNS enrichment (R)": 3.38}
{"Sequence": "AUAUUCUUCAUCUCAUCCUGUGGGAUUCUGCAAUCAUAAAACACAGGAAAGGGGAAUUCUGUGAUGGCAAAUGAAAAAAAUGUUAACAUUUGGUAGACAUGUGCUUUGAC", "RBNS enrichment (R)": 0.291}
{"Sequence": "CCUUCUGGGGGAGCCCUAAGAGGUGGGGAGCAGAGGACUUUUGCUCAGACACCCUUUGCCUGGAAGCCCACUUGUGUUGCUGCUGUGUUGUGUAUAUAGUAUUCUCGAGA", "RBNS enrichment (R)": 0.542}
{"Sequence": "CCAGGCCCAGCUGCCUUUGGCUUUGAUCUCAAGUCAGGCUGAAGGCAGCGAAGCCUCGGGGCCCAAGCCCCUCCCCAGCCCCCUCUCCCGGACAGACGCCUUGCCCAGGG", "RBNS enrichment (R)": 0.202}
{"Sequence": "GGUUCUCACGGGUUCAAUCUUUUGUGUUUAGAGAGGCCACGGUUCAGACAAUGGUAUAUAUUUUUGUUAUCAGGUGCAUGUCUGUCUGAUUUCUUUUUUUUUCCUGUUGG", "RBNS enrichment (R)": 23}
{"Sequence": "UGGCCUCCUGCUCCAAGACCCUCCCGAGUCCCCGGAAAUGGAGAGUGCAGUUCUUGGGCCCAGCCUGGCCUUCGCCAUGAGUUUGGGGAGCGAGACCCCACCUGAGACAG", "RBNS enrichment (R)": 0.354}
{"data": "Other studies, line by line"}
{"Substance": "PhoQ, residues 284 288 289 292 302 303 SSTLSG", "target": "PhoP, residues 12 14 15 18 19 HEGLL (Escherichia coli, UniProt P23836)", "test": "Sort-seq, refers to: YFP reporter", "system": "E. coli", "setting": "PhoQ-PhoP variant library, with: 10 µM Mg2+", "how to read": "reference: high Mg2+ state, higher = stronger signaling", "endpoint": "fold induction", "result": 3.97}
{"note": "Excerpt of the above (block 3):"}
{"Sequence": "CCAGGCCCAGCUGCCUUUGGCUUUGAUCUCAAGUCAGGCUGAAGGCAGCGAAGCCUCGGGGCCCAAGCCCCUCCCCAGCCCCCUCUCCCGGACAGACGCCUUGCCCAGGG", "RBNS enrichment (R)": 0.202}
{"Sequence": "GGUUCUCACGGGUUCAAUCUUUUGUGUUUAGAGAGGCCACGGUUCAGACAAUGGUAUAUAUUUUUGUUAUCAGGUGCAUGUCUGUCUGAUUUCUUUUUUUUUCCUGUUGG", "RBNS enrichment (R)": 23}
{"Sequence": "UGGCCUCCUGCUCCAAGACCCUCCCGAGUCCCCGGAAAUGGAGAGUGCAGUUCUUGGGCCCAGCCUGGCCUUCGCCAUGAGUUUGGGGAGCGAGACCCCACCUGAGACAG", "RBNS enrichment (R)": 0.354}
